Measurements gathered from unrelated publications.
A part holds a random share of what one study measured. Positions count from the first letter of the parent shown.

Study 1
Target: RNA binding protein fox-1 homolog 2, RRM domain, GST-SBP tag (RBFOX2, Homo sapiens, UniProt O43251-10, residues 100-194)
Technique: RNA Bind-n-Seq
Form: RNA
Sample: in vitro
Concentration: 365 nM
Notes: natural RNA segment, single round, ends assumed
Baseline: no-protein control
Reading: higher = stronger binding
All sequences stand within: GGGAGUUCUACAGUCCGACGAUC … UGGAAUUCUCGGGUGCCAA
Residues (chain): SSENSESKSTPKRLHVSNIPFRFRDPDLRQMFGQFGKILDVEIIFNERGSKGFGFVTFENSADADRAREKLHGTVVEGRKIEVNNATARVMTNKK
Strand | RBNS enrichment (R)
AUGUAAGCUCAGGGUUACACAGUUCCAAAUCUUGGGAAGGGGCUUUUCAGACAGACUGUUUGCUUUCUGCUGAGAUAAGGAAUGCAUCACUCUGCCAGAGUAUGACUUUU | 0.463
CAUAGUUACUAAGUUUUUAUGAACUGUUGUGUCCUGUUAAUGCAUAUUGCCCUGUGACUCCAGUAUAUCUCACCUGUACUGACCAAACCUAAAUAAACAUUUUUAUUACG | 0.444
AAAACCAGACCACAGCACAGCCAGGGAGCCCAGUAGUGUUUCCAAGAACAGUGUGGAGCUUGAGAAAGAGAACUUUAAAAAUUAGAGGGUCCCUUUCUGCAGAGGAAGGG | 0.3
CAGCUCCAAGCCGAACACACGCUGUGAGCCACCACAGCCCAGGAAGCAGGAAAACCAAUCGUCUUCUUGACAGGGUGGCAUUUGGCCUUGAACAAAAUCAGGUCCCCUGG | 0.238
CAGUGUCCUCAGUGAGCUCUCUGAGGAGCAGGCUUUCCAUGUCAGCUAUCUGGAUAUUGGUAUGGCCAACUAGAGACUGGGGAUGGAGGGGACUGGAUCAAAGCAAGUAU | 0.582
UGUGGUGUAUAUUUCAACAGGGACCCUUGUAAAUUGUCAUAUGCCAAUAAAAUGUCCUAAGUGGUAAUAGCUGGUCUCUGUUUGCCUGACGUUGAGGCUAUCGCUGCUUG | 1.18
GUCUGCUAUUAAUGGACCAUAUUUAUUACAGUUUUUAAAUUGUACAAUCUCUGUAUUAUAGCUAUUUGUCUAACAUUACCCCACAUGUAAUAAAUAAAACAAUAUGAGCA | 1.02
UGCACUUCAAAAAAGCUUAAUUAAGUACAACCAACCACCUUUCCAGCCAUAGAGAUUUUAAUUAGCCCAACUAGAAGCCUAGUGUGUGUGCUUUCUUAAUGUGUGUGCCA | 0.523
AUGCCAUUUUUAUAUUCCUAAUAAAUGGCAAAGAGACAAGAAUAGGACCUUGGAUGGAAAUUCCCUGGCAGAAAAUGAAACAUGGGAAUAAGAUGCUUGAACAAGUUAGA | 1.08
UCUUGACCUGCCAGCUUCACUUCCAUCUGUGUUGCUAUUAGGUAUCUCUAACACCAGCACACUUCUUACGAGAUGUACUCAACCUGGCCUACUGGCCAGGUCACCAAGCA | 1.05
UGUACCUCUGACUUUCUUGGCUCAGGUUCAGUCAGUUGCUCUUCCUCCUUGGCAAAGCCAUCUAGGUUCCAGGUGGGUGUCAUGCAUACCACAUGUGCACAGAGCCAGCU | 0.133
UAGCCCAAGAACAGAAAGAACCUUGCUGGGGUUGGAGGUUUCACUUGCACAUCAUGGAGGGUUUAGUGCUUAUCUAAUUUGUGCCUCACUGGACUUGUCCAAUUAAUGAA | 0.404

Study 2
Target: Ras GTPase-activating protein-binding protein 1, RRM domain (G3BP1, Homo sapiens, UniProt Q13283)
UniProt Q13283, sequence (whole entry, looked up): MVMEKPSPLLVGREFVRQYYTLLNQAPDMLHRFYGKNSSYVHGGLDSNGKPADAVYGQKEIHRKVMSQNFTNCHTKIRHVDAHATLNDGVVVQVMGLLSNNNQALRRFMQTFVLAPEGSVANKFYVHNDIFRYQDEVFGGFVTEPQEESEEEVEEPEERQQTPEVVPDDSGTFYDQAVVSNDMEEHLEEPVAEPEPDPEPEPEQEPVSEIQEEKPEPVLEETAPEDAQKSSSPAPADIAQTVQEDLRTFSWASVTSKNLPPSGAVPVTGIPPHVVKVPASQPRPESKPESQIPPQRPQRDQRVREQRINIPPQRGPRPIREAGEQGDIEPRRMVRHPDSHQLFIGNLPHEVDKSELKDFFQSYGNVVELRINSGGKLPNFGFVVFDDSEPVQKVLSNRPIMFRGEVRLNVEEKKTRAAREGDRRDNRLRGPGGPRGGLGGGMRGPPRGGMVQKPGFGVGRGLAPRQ
Technique: RNA Bind-n-Seq
Form: RNA
Sample: in vitro
Concentration: 1 µM
Notes: whole 134-nt RNA, ends assumed
Together with: 150 mM KCl
Baseline: input library
Reading: higher = stronger binding
All sequences stand within: GGGAGUUCUACAGUCCGACGAUC … UGGAAUUCUCGGGUGUCAAGG
Strand | log2 enrichment
GUCCUGUGCUACACAUCGUAUGUACCGAAUCGGGUUUUUGGGUUUUUGGGAAAAAGGGAAAGUAUUAUGUUACGCCGUUCGGAUCUGCAC | 0.0316
AGUCCUGUGCUACACAUCGUAUGUACCGAAUCGGGCCCCGGGGCCCCGGGGCCCCGGGAAAGUAUUAUGUUACGCCGUUCGGAUCUGCAC | 0.48
UCCUGUGCUACACAUCGUAUGUACCGAAUCGGGGUUUUUUGGGUUUUUUGGUUUUUUGGAAAGUAUUAUGUUACGCCGUUCGGAUCUGCA | -0.133
UGGCCCUGGUGGCAUGCGGGGAGGAAGAGGUGACCUCAUGGAUCGUGGUGGUCCCGGUGGAAUGUUCAGAGGUGGCCGUGGUGGAGACAG | 0.756
GUCCUGUGCUACACAUCGUAUGUACCGAAUCAAAUUUAAACCCCCAAACCCCCCCAAAAAAGUAUUAUGUUACGCCGUUCGGAUCUGCAC | -0.382
CCUCAAGUCCUGUGCUACACAUCGUAUGUACCGAAUCGGGGUGGGUGGGUGGGAAAGUAUUAUGUUACGCCGUUCGGAUCUGCACUUCCA | 0.802
UCUUUAUUUGAGCCAGUCUUGCAAGGUUAACUUCUCACUGGGCCUAGUGUGGUGCCCAGGUUUUUGCCUUGCUUCACUUCUGUCUCUACA | -0.495
CCUCAAGUCCUGUGCUACACAUCGUAUGUACCGAAUCGGCCGGGCCGGGCCGGAAAGUAUUAUGUUACGCCGUUCGGAUCUGCACUUCCA | -0.635
UCCUGUGCUACACAUCGUAUGUACCGAAUCGGGCCCCCCGGCCCCCCGGGCCCCCCGGGAAAGUAUUAUGUUACGCCGUUCGGAUCUGCA | -0.431
UGGGAGGUGGAUAUUGUUUAUUUUUUUAGCUCAUUUCCAGGGGUGGGAAUUUUUUUUUAAUAUGUGUCAUGAAUAAAGUUGUUUUUGAAA | 2.08
AAGUCCUGUGCUACACAUCGUAUGUACCGAAUCGGGGCCCGGGGCCCGGCCCGGGGAAAGUAUUAUGUUACGCCGUUCGGAUCUGCACUU | -1.22
UCAAGUCCUGUGCUACACAUCGUAUGUACCGAAUCGGGCCCGGGGCCCGGCCCGGAAAGUAUUAUGUUACGCCGUUCGGAUCUGCACUUC | -0.539
AAGUCCUGUGCUACACAUCGUAUGUACCGAAUCGGGUUUUGGGUUUUGGGGUUUUGGAAAGUAUUAUGUUACGCCGUUCGGAUCUGCACU | -0.175
AGUCCUGUGCUACACAUCGUAUGUACCGAAUCGGCCCCCGGCCCCCGGGGCCCCCGGGAAAGUAUUAUGUUACGCCGUUCGGAUCUGCAC | -0.443

Study 3
Target: PABPC1L2, full length, GST fusion (mouse, UniProt A0ABA7IW68)
Technique: RNAcompete
Form: RNA
Sample: in vitro
Concentration: 20 nM
Notes: 7-mer, probes averaged, single round
Baseline: mean of 7-mers
Reading: higher = stronger binding
Target sequence (chain): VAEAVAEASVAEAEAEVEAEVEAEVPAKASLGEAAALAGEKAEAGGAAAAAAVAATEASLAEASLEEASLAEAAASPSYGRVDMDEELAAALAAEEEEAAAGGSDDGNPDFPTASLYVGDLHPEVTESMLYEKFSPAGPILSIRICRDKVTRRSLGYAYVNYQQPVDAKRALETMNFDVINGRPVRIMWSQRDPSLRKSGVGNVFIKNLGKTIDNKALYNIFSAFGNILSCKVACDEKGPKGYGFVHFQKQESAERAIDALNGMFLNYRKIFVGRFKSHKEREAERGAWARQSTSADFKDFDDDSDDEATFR
Strand | 7-mer Z-score
GCGCUAA | 0.0859
UCUCAGC | -0.338
CAUCGGU | -0.219
GAAAGGC | 0.262
CAUCCCC | -0.44
UAUAUCA | -0.0228
ACCCUUA | -0.146
UUUUAGU | -0.0935
AAAUCGC | 0.898
CAUGUGC | -0.132
AUUGGAG | 0.0533
GACUCGG | 0.0261
CUGAUAC | -0.264
GGCUCUA | 0.207
CAUCCUU | -0.345
GGGCCUC | -0.159
UGUCCCU | -0.34

Study 4
Target: ABI1, truncated, D143A, DHFR fusion (Arabidopsis thaliana)
Technique: DHFR PCA, deep sequencing
Sample: yeast
Notes: methotrexate growth selection, single substitutions
Together with: (+)-ABA 58 µM
Baseline: wild-type fitted maximum
Reading: higher = stronger binding
Starting sequence: PYL1, truncated, DHFR fusion (Arabidopsis thaliana); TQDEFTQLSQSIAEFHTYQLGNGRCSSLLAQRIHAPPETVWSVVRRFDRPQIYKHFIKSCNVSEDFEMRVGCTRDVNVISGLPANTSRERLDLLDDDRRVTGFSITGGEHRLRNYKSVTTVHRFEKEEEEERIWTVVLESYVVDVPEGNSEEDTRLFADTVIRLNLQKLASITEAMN; partner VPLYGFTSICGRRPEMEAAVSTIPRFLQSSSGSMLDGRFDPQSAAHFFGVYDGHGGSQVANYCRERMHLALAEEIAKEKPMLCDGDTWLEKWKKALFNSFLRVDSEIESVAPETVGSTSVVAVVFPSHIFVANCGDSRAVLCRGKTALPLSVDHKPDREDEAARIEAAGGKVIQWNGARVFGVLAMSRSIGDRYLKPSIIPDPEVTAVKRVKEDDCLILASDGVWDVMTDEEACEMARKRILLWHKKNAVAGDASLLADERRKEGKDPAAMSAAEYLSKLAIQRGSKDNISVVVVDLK
Substitution | relative binding score
F103I | 31%
G108N | -9.75%
V44A | 58.1%
V78K | -0.825%
E38N | 67.9%
V100C | 82.4%
S26K | 68.6%
I162K | 7.09%
S27A | 74.1%
C60P | -3.05%
E128I | 89.5%
F157A | 11.8%
E151S | 82%
T6C | 92.4%
M68C | 79.9%
C25Q | 18.4%
N149Q | 44.6%

Study 5
Target: Histone acetyltransferase KAT6A, winged helix 1, GST fusion (KAT6A, Homo sapiens, UniProt Q92794, residues 1-85)
Technique: protein binding microarray
Form: double-stranded DNA, one strand shown
Sample: in vitro
Concentration: not given
Notes: 8-mer, flanks averaged, mean of 2 arrays, mostly near background
Baseline: not given
Reading: higher = stronger binding
Construct (chain): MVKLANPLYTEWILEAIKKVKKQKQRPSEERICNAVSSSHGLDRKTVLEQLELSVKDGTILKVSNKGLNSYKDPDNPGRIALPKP
Strand | E-score
ATGCCGAG | 0.251
GGGCGGGA | 0.376
CAAGACCA | -0.232
CATACGGC | 0.347
CGGTCGGC | 0.431
AGTGCAGA | -0.0923
CCTTTAGA | -0.157
ATGCAGGA | -0.34
CGTTTACC | 0.0916
CTATTGGC | -0.02
CCAGAGCA | -0.223
ATTTTACG | -0.033
AATAAGGG | -0.213
AAAACAAA | -0.115
ATCGACGG | 0.325
GAATTAGC | -0.116
AACACGAG | -0.21
GCACGCTA | 0.17

Study 6
Target: Sal-like protein 4, full length isoform A (SALL4, Homo sapiens, UniProt Q9UJQ4, residues 1-1053)
UniProt Q9UJQ4, sequence (whole entry, looked up): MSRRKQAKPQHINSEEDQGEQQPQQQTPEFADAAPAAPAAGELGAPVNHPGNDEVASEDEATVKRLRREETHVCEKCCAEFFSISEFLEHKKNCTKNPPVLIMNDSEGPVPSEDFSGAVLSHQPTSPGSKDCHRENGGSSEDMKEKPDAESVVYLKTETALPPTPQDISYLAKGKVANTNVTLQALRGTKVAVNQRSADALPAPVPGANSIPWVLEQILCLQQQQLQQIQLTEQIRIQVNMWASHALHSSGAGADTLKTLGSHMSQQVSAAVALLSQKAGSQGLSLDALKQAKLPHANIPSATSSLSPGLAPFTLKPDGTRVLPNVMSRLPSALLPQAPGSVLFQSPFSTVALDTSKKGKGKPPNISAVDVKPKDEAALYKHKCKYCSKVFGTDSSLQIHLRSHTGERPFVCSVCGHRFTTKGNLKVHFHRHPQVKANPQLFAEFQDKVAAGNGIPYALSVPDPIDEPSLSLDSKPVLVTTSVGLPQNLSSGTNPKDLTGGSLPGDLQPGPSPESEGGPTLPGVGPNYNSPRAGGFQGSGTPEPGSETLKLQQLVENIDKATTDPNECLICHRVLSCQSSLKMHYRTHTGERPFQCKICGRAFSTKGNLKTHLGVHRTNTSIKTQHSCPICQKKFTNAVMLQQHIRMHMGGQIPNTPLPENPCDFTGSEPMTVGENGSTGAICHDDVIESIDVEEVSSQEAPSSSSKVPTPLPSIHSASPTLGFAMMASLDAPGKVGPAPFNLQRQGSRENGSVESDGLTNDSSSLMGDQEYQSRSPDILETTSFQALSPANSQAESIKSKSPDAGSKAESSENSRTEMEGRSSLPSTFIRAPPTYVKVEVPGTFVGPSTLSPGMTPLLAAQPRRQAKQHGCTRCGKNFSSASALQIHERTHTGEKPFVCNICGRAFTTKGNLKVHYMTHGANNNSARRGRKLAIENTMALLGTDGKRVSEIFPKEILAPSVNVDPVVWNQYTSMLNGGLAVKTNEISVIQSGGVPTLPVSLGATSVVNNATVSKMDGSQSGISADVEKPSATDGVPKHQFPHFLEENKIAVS
Technique: universal PBM
Form: double-stranded DNA, one strand shown
Sample: in vitro
Concentration: 600 nM
Notes: 8-mer, flanks averaged, mean of replicates
Reading: higher = stronger binding
Strand | E-score
GAGGTACA | 0.025
CCCTATGC | -0.0636
CCGCGCCG | -0.359
CACCACCG | -0.391
CACTCCCA | -0.000695
CCGGAGAG | -0.271
CCCAAACC | -0.222
AGAAAATA | 0.323
CACACTAG | -0.121
GATAAGAA | 0.278
AAACGATT | 0.206
AGCGTCCA | -0.237
GTTCTTCA | -0.00276
ACAAATCA | 0.265
TACCACGA | 0.0388
CAAAGGAG | 0.127
GAGTCCGA | -0.00413
AGCGGTGC | -0.194
CGAATGAC | 0.19
CAATTTGG | 0.0824
ACCAAGAA | 0.0878
GGGGTAGA | -0.12
CTTAGGTC | -0.144
GGCCATTA | -0.0312
CGGCAAGC | -0.261
